# Measurements of several laboratories.
# EGFR L858R/T790M: Epidermal growth factor receptor (EGFR, Homo sapiens, UniProt P00533, L858R/T790M)
# EGFR: Epidermal growth factor receptor (EGFR, Homo sapiens, UniProt P00533)
target,test,test system,conditions,IC50,SMILES
"Epidermal growth factor receptor (EGFR, Homo sapiens, UniProt P00533, T790M)","enzyme activity, inhibitor",,,> 10000 nM,Cc1nn(-c2cccc(N)c2)c(=O)c2cnc(Nc3ccc(N4CCNCC4)cc3)nc12
"Epidermal growth factor receptor (EGFR, Homo sapiens, UniProt P00533, C797S/L858R/T790M)","enzyme activity, inhibitor, TR-FRET",,,2.92 nM,COc1cc(N2CCOCC2)ccc1Nc1ncc(Cl)c(Nc2ccccc2NS(C)(=O)=O)n1
EGFR L858R/T790M,"enzyme activity, inhibitor",,,0.6 nM,C=CC(=O)Nc1cc(Nc2ncnc(Nc3cc(Cl)c(F)cc3C(C)(C)O)n2)c(OC)cc1N1CCC(N(C)C)C1 (stereo not drawn)
EGFR,"enzyme activity, inhibitor, FRET",,,> 10000 nM,C=CC(=O)Nc1cc(-c2nn(C3CCN(CCNC(=O)[C@H](C)CCC45CC6CC(CC(C6)C4)C5)CC3)c3ncnc(N)c23)ccc1Oc1ccccc1
EGFR,"EGFR phosphorylation, inhibitor",A-431,,75 nM,C=CC(=O)Nc1cc(Nc2ncnc(Nc3ccccc3C(F)(F)F)n2)c(OC)cc1N(C)CCN(C)C
"Epidermal growth factor receptor (EGFR, Homo sapiens, UniProt P00533, del746-750/T790M)","kinase activity, TR-FRET",,added: ATP at Km,0.19 nM,COCC1CN(C2CCN(c3cc(OC)c(Nc4ncc(Br)c(Nc5ccc6c(c5P(C)(C)=O)OCCO6)n4)cc3C)CC2)C1
EGFR,,,,5.1 nM,COc1c(Cl)cccc1Nc1c(-c2ccncc2C#C[C@@]2(C)CCCN2C(=O)/C=C/CN(C)C)[nH]c2c1C(=O)NCC2
EGFR L858R/T790M,"enzyme activity, inhibitor",,,0.3 nM,C=CC(=O)Nc1cc(Nc2ncnc(Nc3cc(Cl)c(F)cc3C(C)(C)O)n2)c(OC)cc1N(C)CCN(C)C
EGFR,"enzyme activity, inhibitor",,,> 10000 nM,CCN(CC)CC(=O)Nc1cccc(-n2cc(-c3ccc4ccc(-c5cn(-c6cccc(NC(=O)CN(CC)CC)c6)nn5)cc4c3)nn2)c1

# Some of these lines once more:
target,test,test system,conditions,IC50,SMILES
EGFR,"enzyme activity, inhibitor",,,> 10000 nM,CCN(CC)CC(=O)Nc1cccc(-n2cc(-c3ccc4ccc(-c5cn(-c6cccc(NC(=O)CN(CC)CC)c6)nn5)cc4c3)nn2)c1
